{"data": "Measurements pooled from the literature", "target": "D(3) dopamine receptor (DRD3, Homo sapiens, UniProt P35462)", "note": "Compare with care: the assays were run in different laboratories.", "sequence of UniProt P35462 (whole entry, looked up)": "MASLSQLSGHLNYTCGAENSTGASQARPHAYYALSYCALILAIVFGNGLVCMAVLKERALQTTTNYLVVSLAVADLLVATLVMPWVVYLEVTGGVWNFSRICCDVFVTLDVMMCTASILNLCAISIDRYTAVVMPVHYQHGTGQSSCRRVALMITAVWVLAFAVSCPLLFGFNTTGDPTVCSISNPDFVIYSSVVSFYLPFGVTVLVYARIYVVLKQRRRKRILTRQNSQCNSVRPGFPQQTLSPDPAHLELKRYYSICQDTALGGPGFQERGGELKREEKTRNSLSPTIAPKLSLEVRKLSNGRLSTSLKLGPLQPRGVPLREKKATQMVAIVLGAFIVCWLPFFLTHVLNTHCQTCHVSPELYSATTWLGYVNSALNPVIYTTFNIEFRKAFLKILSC"}
{"Structure (SMILES)": "O=C1c2sc(-c3ccc(N4CCC(CO)CC4)nc3F)nc2CCN1c1cccnc1", "test": "ligand displacement, radioligand", "setting": "1 µM", "inhibition": "-3%"}
{"Structure (SMILES)": "c1ccc(OC[C@H]2CN(CCN3CCc4ccccc43)CCO2)nc1", "test": "radioligand binding", "setting": "concentration not given, with: [3H]N-methylspiperone", "inhibition": "85.6%"}
{"Structure (SMILES)": "Cc1[nH]nc2c1N=C(c1ccccc1Cl)c1cnc(N3CCOCC3)cc1N2", "test": "cell-free assay", "setting": "10 µM", "inhibition": "36%"}
{"Structure (SMILES)": "COc1cc(CNCCc2ccc(F)cc2)cc(Cl)c1OCC(N)=O", "test": "enzyme activity, inhibitor", "setting": "10 µM", "inhibition": "16.1%"}
{"Structure (SMILES)": "COCC(=O)N1CCc2cc(-c3csc(NC(=O)c4cc(OC)cc(OC)c4)n3)ccc21", "test": "cell-free assay", "setting": "10 µM", "inhibition": "7%"}
{"Structure (SMILES)": "Brc1ccccc1-c1nnc(CSc2nnnn2-c2ccccc2)o1", "test": "ligand displacement, radioligand", "setting": "10 µM", "inhibition": "-11%"}
{"Structure (SMILES)": "COC(=O)c1ccccc1NC(=O)CN1CCN(c2cccc(C(F)(F)F)c2)CC1", "test": "enzyme activity, inhibitor", "setting": "10 µM", "inhibition": "-9.5%"}
{"Structure (SMILES)": "Cc1ccnc(OC[C@H]2CN(CCN3CCc4ccccc43)CCO2)c1", "test": "radioligand binding", "setting": "concentration not given, with: [3H]N-methylspiperone", "inhibition": "0.2%"}
{"Structure (SMILES)": "NS(=O)(=O)c1ccc(CCNCc2ccc(-c3ccccc3F)o2)cc1", "test": "enzyme activity, inhibitor", "setting": "10 µM", "inhibition": "58.5%"}
{"Structure (SMILES)": "COc1ccc(C(=O)Nc2c(-c3cccs3)nc3ccccn23)cc1", "test": "ligand displacement, radioligand", "setting": "10 µM", "inhibition": "< 50%"}
{"Structure (SMILES)": "Nc1ccccc1C(=O)NCCCN1CCN(Cc2ccccc2)CC1", "test": "enzyme activity, inhibitor", "setting": "10 µM", "inhibition": "-9.7%"}
{"Structure (SMILES)": "Cn1ccc2cc(-n3c(=O)[nH]c4sc5c(c4c3=O)CCCC5)ccc21", "test": "cell-free assay, radioligand", "setting": "10 µM", "inhibition": "10%"}
{"Structure (SMILES)": "CC1Cc2ccccc2N1C(=O)CN1CCN(c2ccccc2)CC1 (stereo not shown)", "test": "radioligand binding", "setting": "concentration not given, with: [3H]N-methylspiperone", "inhibition": "51%"}
{"note": "Repeated from above:"}
{"Structure (SMILES)": "c1ccc(OC[C@H]2CN(CCN3CCc4ccccc43)CCO2)nc1", "test": "radioligand binding", "setting": "concentration not given, with: [3H]N-methylspiperone", "inhibition": "85.6%"}
